Assay results of several laboratories.
Compare with care: the assays were run in different laboratories.
Organism: Staphylococcus aureus

C/C(=C\C(=O)OCCCCCCCC(=O)Nc1c2sscc-2[nH]c1=O)[C@@H](O)[C@@H]1OC[C@H](C/C=C/[C@@H](C)[C@H](C)O)[C@@H](O)[C@H]1O
MIC (MRSA COL, IleRS F587V/V631F mutant): 0.04 µM

Cc1ccc2[nH]c3c(c2c1)CCCC3NCCc1ccc(Br)cc1 (stereo not drawn)
MIC (broth microdilution; Mu50 VISA): 4 µg/mL

CC[C@H](C)[C@H](NC(=O)[C@H](C)NC(=O)[C@H](CCCCN)NC(=O)[C@H](CCCNC(=N)N)NC(=O)[C@H](CCCCN)NC(=O)[C@H](CCCNC(=N)N)NC(=O)[C@H](CCCCN)NC(=O)[C@@H](N)CCCNC(=N)N)C(=O)N[C@@H](CO)C(=O)NCC(=O)N[C@@H](CO)C(=O)N[C@@H](CC(C)C)C(=O)N[C@H](C(=O)N[C@H](C(=O)N[C@@H](CC(C)C)C(=O)N[C@@H](Cc1ccccc1)C(=O)NCC(=O)N[C@@H](Cc1ccc(O)cc1)C(N)=O)[C@@H](C)O)C(C)C
MIC (broth microdilution; 24 h, 37 °C): 128 µM

CC[C@H](C)[C@H](NC(=O)[C@H](Cc1c[nH]c2ccccc12)NC(=O)[C@@H](NC(=O)[C@H](Cc1ccccc1)NC(=O)[C@@H]1CCCN1C(=O)[C@@H](NC(=O)[C@H](C)N)[C@@H](C)CC)[C@@H](C)CC)C(=O)N[C@@H](Cc1ccccc1)C(=O)N[C@@H](CCCNC(=N)N)C(=O)N[C@@H](CC(C)C)C(=O)N[C@@H](CC(C)C)C(=O)N[C@@H](CCCNC(=N)N)C(=O)N[C@@H](CCCCN)C(=O)NCC(N)=O
MIC (broth microdilution; ATCC 6051; 18 h, 37 °C): 1.88 µM

O=c1ncn2nc(Sc3ccc(F)cc3F)ccc2c1-c1c(Cl)cccc1Cl
MIC (NCTC 8325): > 30 µM

CC[C@H](C)[C@H](N)C(=O)N[C@@H](CC(C)C)C(=O)NCC(=O)N[C@H](CCCNC(=N)N)C(=O)N[C@H](C(=O)N[C@@H](Cc1c[nH]c2ccccc12)C(=O)N[C@@H](CCCCN)C(=O)NCC(=O)N[C@H](C(=O)N[C@@H](CCCCN)C(=O)N[C@@H](CC(=O)O)C(=O)N[C@H](C(=O)N[C@@H](CC(C)C)C(N)=O)[C@@H](C)CC)[C@@H](C)CC)[C@@H](C)CC
MIC (broth microdilution; ATCC 25923; with: NH4Cl 6 µM): 25 µM

CCCCCCC#Cc1cncc(-c2nnc(SCc3ccc(Cl)cc3)n2CCCN)c1
MIC (broth microdilution; Mu50 MRSA VISA; 18 to 24 h, 37 °C): 4 µg/mL

CC(C)C[C@@H](NC(=O)CNC(=O)[C@@H](CCCCN)NC(=O)[C@@H](CC(C)C)NC(=O)[C@@H](CCCCN)NC(=O)[C@@H](CCCNC(=N)N)NC(=O)[C@@H](CC(C)C)NC(=O)[C@@H](CC(C)C)NC(=O)[C@@H](CCCNC(=N)N)NC(=O)[C@H](N)CCCNC(=N)N)C(=O)N[C@H](CCCCN)C(=O)N[C@H](CCCCN)C(=O)N[C@H](Cc1ccc(O)cc1)C(=O)N[C@H](CC(C)C)C(=O)N[C@H](Cc1ccc(O)cc1)C(=O)N[C@H](Cc1ccccc1)C(=O)N[C@H](CCCCN)C(=O)N[C@H](CC(C)C)C(=O)N[C@H](CCC(N)=O)C(=O)N[C@H](CC(C)C)C(=O)N[C@H](CC(C)C)C(=O)N[C@H](CCCCN)C(=O)N[C@H](CCCCN)C(N)=O
MIC (broth microdilution; KCTC 1621, Mueller-Hinton broth; 24 h, 37 °C): 4 µM

C/C(=C\C(=O)OCCCCCCCCC(=O)O)C[C@@H]1OC[C@H](C[C@@H]2O[C@H]2[C@@H](C)[C@H](C)O)[C@@H](O)[C@H]1O
MIC (mecA−, antibiotic-susceptible): 1 µg/mL

CC[C@H](C)[C@H](NC(=O)[C@H](CCCCN)NC(=O)[C@@H]1CCCN1C(=O)[C@H](CCCNC(=N)N)NC(=O)[C@H](Cc1ccc(O)cc1)NC(=O)[C@H](CCCNC(=N)N)NC(=O)[C@H](CCCNC(=N)N)NC(=O)[C@@H](NC(=O)[C@H](CCCNC(=N)N)NC(=O)[C@H](CCCNC(=N)N)NC(=O)[C@H](CC(C)C)NC(=O)[C@H](Cc1ccccc1)NC(=O)[C@H](CCCNC(=N)N)NC(=O)[C@H](CO)NC(=O)[C@H](Cc1ccccc1)NC(=O)[C@@H](N)CCCNC(=N)N)C(C)C)C(=O)N[C@@H](CO)C(=O)N[C@@H](Cc1ccccc1)C(=O)N[C@@H](CC(N)=O)C(=O)N[C@@H](CC(C)C)C(=O)N[C@@H](CCC(=O)O)C(=O)N1CCC[C@H]1C(=O)N[C@@H](Cc1ccccc1)C(=O)N[C@@H](Cc1ccccc1)C(=O)N[C@@H](CCCCN)C(=O)N[C@@H](Cc1ccccc1)C(=O)O
MIC (broth microdilution; ATCC 29213, Mueller-Hinton broth; 16 to 20 h, 37 °C): 2.54 µM

CCCCCCCCCCCCCCNC(=O)CP(=O)(O)O
MIC (ATCC 33591 methicillin-resistant): 50 µg/mL

CC[C@H](C)[C@H](NC(=O)[C@H](CC(C)C)NC(=O)[C@H](CCCCN)NC(=O)[C@@H](NC(=O)[C@H](C)NC(=O)[C@H](CCC(=O)O)NC(=O)[C@H](Cc1c[nH]cn1)NC(=O)[C@@H](NC(=O)[C@H](CCCCN)NC(=O)[C@H](CCC(N)=O)NC(=O)[C@H](Cc1ccccc1)NC(=O)[C@@H](NC(=O)[C@H](CCCCN)NC(=O)[C@H](CCCCN)NC(=O)[C@H](CC(C)C)NC(=O)[C@H](C)N)C(C)C)[C@@H](C)CC)[C@@H](C)CC)C(N)=O
MIC (broth microdilution; USA300 resistant; 18 h, 37 °C): 4 µM

CC[C@H](C)[C@H](NC(=O)[C@H](CC(C)C)NC(=O)[C@H](CCCNC(=N)N)NC(=O)[C@@H](N)CCCNC(=N)N)C(=O)N[C@@H](CCCNC(=N)N)C(=O)N[C@H](C(=O)N[C@@H](CC(=O)O)C(=O)N[C@H](C(=O)NCC(=O)N1CCC[C@H]1C(=O)N[C@H](C(=O)N[C@H](C(=O)N[C@@H](Cc1ccc(O)cc1)C(=O)N[C@@H](CC(=O)O)C(=O)N[C@@H](Cc1ccc(O)cc1)C(=O)N[C@@H](Cc1ccccc1)C(=O)N[C@@H](CCCCN)C(=O)N[C@@H](CC(=O)O)C(=O)N[C@@H](CCC(N)=O)C(=O)N[C@@H](CC(C)C)C(=O)N[C@@H](CC(C)C)C(=O)N[C@@H](CCCCN)C(=O)N[C@@H](CCCCN)C(N)=O)[C@@H](C)CC)[C@@H](C)CC)[C@@H](C)O)[C@@H](C)O
MIC (CCARM 3089, methicillin-resistant, Mueller-Hinton broth; 24 h): > 128 µM

CC(C)C[C@H](NC(=O)[C@H](Cc1c[nH]c2ccccc12)NC(=O)[C@H](CC(C)C)NC(=O)[C@@H](NC(=O)[C@H](CC(C)C)NC(=O)[C@H](CCCNC(=N)N)NC(=O)[C@@H](N)CCCNC(=N)N)[C@@H](C)O)C(=O)N[C@H](C(=O)N[C@@H](CC(C)C)C(=O)N[C@@H](CCCNC(=N)N)C(=O)N[C@@H](CCCNC(=N)N)C(N)=O)[C@@H](C)O
MIC (broth microdilution; 29213, Mueller-Hinton broth; 24 h, 37 °C, lowest concentration, 95% inhibition, with: BSA): 4 µM

CC[C@H](C)[C@H](NC(=O)[C@H](CC(C)C)NC(=O)[C@H](CCCNC(=N)N)NC(=O)[C@@H](N)CCCNC(=N)N)C(=O)N[C@@H](CCCNC(=N)N)C(=O)N[C@@H](CCCCN)C(=O)N[C@@H](CC(C)C)C(=O)N[C@@H](CCCCN)C(=O)NCC(=O)N[C@@H](CC(C)C)C(=O)N[C@@H](CCCCN)C(=O)N[C@@H](CCCCN)C(=O)N[C@@H](Cc1ccc(O)cc1)C(=O)N[C@@H](CC(C)C)C(=O)N[C@@H](Cc1ccc(O)cc1)C(=O)N[C@@H](Cc1ccccc1)C(=O)N[C@@H](CCCCN)C(=O)N[C@@H](CC(C)C)C(=O)N[C@@H](CCC(N)=O)C(=O)N[C@@H](CC(C)C)C(=O)N[C@@H](CC(C)C)C(=O)N[C@@H](CCCCN)C(=O)N[C@@H](CCCCN)C(N)=O
MIC (KCTC 1621, Mueller-Hinton broth; with: 150 mM NaCl): 4 µM

CC[C@H](C)[C@H](NC(=O)[C@H](CC(=O)O)NC(=O)[C@@H](NC(=O)[C@H](CC(N)=O)NC(=O)[C@@H]1CCCN1C(=O)[C@@H](NC(=O)[C@@H](N)Cc1ccccc1)[C@@H](C)O)[C@@H](C)O)C(=O)N[C@H](C(=O)N[C@H](C(=O)N[C@@H](CCCNC(=N)N)C(=O)N[C@H](C(=O)N[C@H](C(=O)NCC(=O)NCC(=O)NCC(=O)NCC(=O)NCC(=O)N[C@@H](CC(C)C)C(=O)N[C@@H](CCCCN)C(=O)N[C@@H](CCCCN)C(=O)N[C@@H](CC(C)C)C(=O)N[C@@H](CC(C)C)C(=O)N[C@@H](CC(C)C)C(=O)N[C@@H](CC(C)C)C(=O)N[C@@H](CC(C)C)C(=O)N[C@@H](CCCCN)C(=O)N[C@@H](CCCCN)C(=O)N[C@@H](CC(C)C)C(=O)NCC(=O)O)[C@@H](C)O)[C@@H](C)O)[C@@H](C)O)[C@@H](C)CC
MIC (ATCC 25923, Mueller-Hinton broth; 18 to 24 h, 37 °C): > 256 µg/mL

CC[C@H](C)[C@H](NC(=O)[C@H](CC(C)C)NC(=O)[C@H](CCCNC(=N)N)NC(=O)[C@@H](N)CCCNC(=N)N)C(=O)N[C@@H](CCCNC(=N)N)C(=O)N[C@@H](CCCCN)C(=O)N[C@@H](CC(C)C)C(=O)N[C@@H](CCCCN)C(=O)NCC(=O)N1CCC[C@H]1C(=O)N[C@@H](CCCCN)C(=O)N[C@H](C(=O)N[C@@H](Cc1ccc(O)cc1)C(=O)N[C@@H](CC(C)C)C(=O)N[C@@H](Cc1ccc(O)cc1)C(=O)N[C@@H](Cc1ccccc1)C(=O)N[C@@H](CCCCN)C(=O)N[C@@H](CC(C)C)C(=O)N[C@@H](CCC(N)=O)C(=O)N[C@@H](CC(C)C)C(=O)N[C@@H](CC(C)C)C(=O)N[C@@H](CCCCN)C(=O)N[C@@H](CCCCN)C(N)=O)[C@@H](C)CC
MIC (CCARM 3089, methicillin-resistant, Mueller-Hinton broth; 24 h): 16 µM

CN[C@H](CC(C)C)C(=O)N[C@H]1C(=O)N[C@@H](CC(N)=O)C(=O)N[C@H]2C(=O)N[C@H]3C(=O)N[C@H](C(=O)N[C@H](C(=O)O)c4cc(O)cc(O)c4-c4cc3ccc4O)[C@H](O)c3ccc(c(Cl)c3)Oc3cc2cc(c3O[C@@H]2O[C@H](CO)[C@@H](O)[C@H](O)[C@H]2O[C@H]2C[C@](C)(N)[C@H](O)[C@H](C)O2)Oc2ccc(cc2Cl)[C@H]1O
MIC (NRS402 VISA): 5 µM

Excerpt of the above:
CC[C@H](C)[C@H](NC(=O)[C@H](C)NC(=O)[C@H](CCCCN)NC(=O)[C@H](CCCNC(=N)N)NC(=O)[C@H](CCCCN)NC(=O)[C@H](CCCNC(=N)N)NC(=O)[C@H](CCCCN)NC(=O)[C@@H](N)CCCNC(=N)N)C(=O)N[C@@H](CO)C(=O)NCC(=O)N[C@@H](CO)C(=O)N[C@@H](CC(C)C)C(=O)N[C@H](C(=O)N[C@H](C(=O)N[C@@H](CC(C)C)C(=O)N[C@@H](Cc1ccccc1)C(=O)NCC(=O)N[C@@H](Cc1ccc(O)cc1)C(N)=O)[C@@H](C)O)C(C)C
MIC (broth microdilution; 24 h, 37 °C): 128 µM

CC[C@H](C)[C@H](NC(=O)[C@H](Cc1c[nH]c2ccccc12)NC(=O)[C@@H](NC(=O)[C@H](Cc1ccccc1)NC(=O)[C@@H]1CCCN1C(=O)[C@@H](NC(=O)[C@H](C)N)[C@@H](C)CC)[C@@H](C)CC)C(=O)N[C@@H](Cc1ccccc1)C(=O)N[C@@H](CCCNC(=N)N)C(=O)N[C@@H](CC(C)C)C(=O)N[C@@H](CC(C)C)C(=O)N[C@@H](CCCNC(=N)N)C(=O)N[C@@H](CCCCN)C(=O)NCC(N)=O
MIC (broth microdilution; ATCC 6051; 18 h, 37 °C): 1.88 µM
